Assay results collected from several papers.
Lines come from different studies, so protocols differ. “And” joins repeats or separate records; there may be more than shown. Numbers after ± are the reported error.
DPP4: Dipeptidyl peptidase 4 (DPP4, Homo sapiens, UniProt P27487)
Sequence of UniProt P27487 (whole entry, looked up): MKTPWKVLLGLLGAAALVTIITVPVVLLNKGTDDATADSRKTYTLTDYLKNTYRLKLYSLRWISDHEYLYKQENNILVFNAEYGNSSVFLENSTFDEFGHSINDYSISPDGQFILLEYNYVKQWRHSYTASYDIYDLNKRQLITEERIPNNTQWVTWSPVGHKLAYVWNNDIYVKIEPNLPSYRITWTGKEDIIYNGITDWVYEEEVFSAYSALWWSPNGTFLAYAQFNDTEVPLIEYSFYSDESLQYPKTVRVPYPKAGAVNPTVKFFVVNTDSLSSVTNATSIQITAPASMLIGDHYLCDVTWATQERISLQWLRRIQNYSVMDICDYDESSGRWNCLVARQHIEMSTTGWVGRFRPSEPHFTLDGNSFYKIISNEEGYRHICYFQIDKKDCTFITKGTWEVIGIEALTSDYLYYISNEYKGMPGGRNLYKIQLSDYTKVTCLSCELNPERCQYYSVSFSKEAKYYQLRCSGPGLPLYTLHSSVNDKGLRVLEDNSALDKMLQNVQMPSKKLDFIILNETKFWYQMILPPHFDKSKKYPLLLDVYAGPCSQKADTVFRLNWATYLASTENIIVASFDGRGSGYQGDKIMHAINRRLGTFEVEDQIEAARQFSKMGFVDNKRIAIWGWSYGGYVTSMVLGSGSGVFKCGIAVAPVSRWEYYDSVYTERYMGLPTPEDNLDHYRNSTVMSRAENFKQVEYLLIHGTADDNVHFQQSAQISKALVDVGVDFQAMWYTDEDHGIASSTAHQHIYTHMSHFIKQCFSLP
Sequence of UniProt Q06203 (whole entry, looked up): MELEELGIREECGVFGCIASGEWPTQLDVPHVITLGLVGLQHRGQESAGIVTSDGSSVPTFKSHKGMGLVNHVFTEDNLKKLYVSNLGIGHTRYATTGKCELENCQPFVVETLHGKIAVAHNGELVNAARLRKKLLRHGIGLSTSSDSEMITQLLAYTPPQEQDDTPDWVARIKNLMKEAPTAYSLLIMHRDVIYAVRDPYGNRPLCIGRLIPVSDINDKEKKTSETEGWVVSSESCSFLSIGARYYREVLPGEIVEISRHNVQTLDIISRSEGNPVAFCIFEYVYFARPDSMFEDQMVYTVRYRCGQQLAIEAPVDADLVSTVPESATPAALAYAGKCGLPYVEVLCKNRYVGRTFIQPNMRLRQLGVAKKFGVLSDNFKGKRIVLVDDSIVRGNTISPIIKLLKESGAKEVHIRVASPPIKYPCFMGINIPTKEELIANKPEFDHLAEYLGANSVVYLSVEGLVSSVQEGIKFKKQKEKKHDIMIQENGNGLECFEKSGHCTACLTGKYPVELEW
Sequence of UniProt P40261 (whole entry, looked up): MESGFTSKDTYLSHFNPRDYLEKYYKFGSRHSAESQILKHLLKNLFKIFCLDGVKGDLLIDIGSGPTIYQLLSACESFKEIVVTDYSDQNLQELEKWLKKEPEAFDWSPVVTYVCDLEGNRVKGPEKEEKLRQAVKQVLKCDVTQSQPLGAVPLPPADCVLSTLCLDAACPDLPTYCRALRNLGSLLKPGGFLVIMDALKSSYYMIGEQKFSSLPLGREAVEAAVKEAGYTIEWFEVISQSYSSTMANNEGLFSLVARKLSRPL
Sequence of UniProt P63104 (whole entry, looked up): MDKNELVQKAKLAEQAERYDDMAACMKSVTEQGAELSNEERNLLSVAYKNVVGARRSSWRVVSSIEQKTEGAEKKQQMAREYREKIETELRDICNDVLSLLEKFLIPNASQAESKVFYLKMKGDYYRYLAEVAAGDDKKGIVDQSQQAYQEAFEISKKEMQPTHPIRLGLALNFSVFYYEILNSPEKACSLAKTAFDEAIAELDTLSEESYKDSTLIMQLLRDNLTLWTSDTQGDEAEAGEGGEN
Sequence of UniProt P26718 (whole entry, looked up): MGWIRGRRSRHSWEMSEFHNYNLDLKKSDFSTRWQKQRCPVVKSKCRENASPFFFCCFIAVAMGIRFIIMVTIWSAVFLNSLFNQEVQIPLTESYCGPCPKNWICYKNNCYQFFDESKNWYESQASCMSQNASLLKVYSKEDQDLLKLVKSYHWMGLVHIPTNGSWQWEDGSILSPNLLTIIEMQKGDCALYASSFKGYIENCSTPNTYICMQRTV
Sequence of UniProt C7C422 (whole entry, looked up): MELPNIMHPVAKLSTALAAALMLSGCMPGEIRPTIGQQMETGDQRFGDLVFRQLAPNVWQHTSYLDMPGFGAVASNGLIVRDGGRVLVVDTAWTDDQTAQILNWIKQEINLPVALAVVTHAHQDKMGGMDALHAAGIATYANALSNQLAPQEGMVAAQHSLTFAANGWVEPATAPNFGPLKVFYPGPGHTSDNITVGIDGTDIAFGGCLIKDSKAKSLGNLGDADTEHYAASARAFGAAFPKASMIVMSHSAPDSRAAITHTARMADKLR
Sequence of UniProt P29122 (whole entry, looked up): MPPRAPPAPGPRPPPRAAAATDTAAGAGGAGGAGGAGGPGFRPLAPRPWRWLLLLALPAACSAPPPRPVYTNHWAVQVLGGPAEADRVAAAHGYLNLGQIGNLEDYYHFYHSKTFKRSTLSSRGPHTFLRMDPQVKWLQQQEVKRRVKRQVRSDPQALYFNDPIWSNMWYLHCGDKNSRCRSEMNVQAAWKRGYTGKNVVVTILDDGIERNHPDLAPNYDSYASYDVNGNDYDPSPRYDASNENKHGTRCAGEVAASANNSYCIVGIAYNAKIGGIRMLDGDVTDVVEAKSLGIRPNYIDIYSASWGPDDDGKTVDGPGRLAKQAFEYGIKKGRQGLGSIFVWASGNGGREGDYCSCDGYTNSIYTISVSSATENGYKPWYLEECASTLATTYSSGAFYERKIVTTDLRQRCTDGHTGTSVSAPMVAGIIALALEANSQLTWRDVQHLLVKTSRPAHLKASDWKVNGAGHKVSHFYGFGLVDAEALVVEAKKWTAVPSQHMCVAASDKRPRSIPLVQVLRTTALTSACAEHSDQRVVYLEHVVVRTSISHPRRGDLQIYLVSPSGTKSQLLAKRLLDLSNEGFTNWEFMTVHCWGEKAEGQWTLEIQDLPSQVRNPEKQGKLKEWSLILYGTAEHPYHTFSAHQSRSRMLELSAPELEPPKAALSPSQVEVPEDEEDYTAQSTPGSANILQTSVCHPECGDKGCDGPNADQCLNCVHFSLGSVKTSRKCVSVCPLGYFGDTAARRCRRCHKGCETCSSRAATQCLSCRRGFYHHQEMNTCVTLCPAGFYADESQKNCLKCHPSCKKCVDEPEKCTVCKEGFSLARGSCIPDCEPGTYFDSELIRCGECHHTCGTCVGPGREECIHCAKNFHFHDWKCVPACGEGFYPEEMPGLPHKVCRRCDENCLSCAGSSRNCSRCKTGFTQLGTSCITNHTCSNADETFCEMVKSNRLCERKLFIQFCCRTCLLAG
Sequence of UniProt P05067 (whole entry, looked up): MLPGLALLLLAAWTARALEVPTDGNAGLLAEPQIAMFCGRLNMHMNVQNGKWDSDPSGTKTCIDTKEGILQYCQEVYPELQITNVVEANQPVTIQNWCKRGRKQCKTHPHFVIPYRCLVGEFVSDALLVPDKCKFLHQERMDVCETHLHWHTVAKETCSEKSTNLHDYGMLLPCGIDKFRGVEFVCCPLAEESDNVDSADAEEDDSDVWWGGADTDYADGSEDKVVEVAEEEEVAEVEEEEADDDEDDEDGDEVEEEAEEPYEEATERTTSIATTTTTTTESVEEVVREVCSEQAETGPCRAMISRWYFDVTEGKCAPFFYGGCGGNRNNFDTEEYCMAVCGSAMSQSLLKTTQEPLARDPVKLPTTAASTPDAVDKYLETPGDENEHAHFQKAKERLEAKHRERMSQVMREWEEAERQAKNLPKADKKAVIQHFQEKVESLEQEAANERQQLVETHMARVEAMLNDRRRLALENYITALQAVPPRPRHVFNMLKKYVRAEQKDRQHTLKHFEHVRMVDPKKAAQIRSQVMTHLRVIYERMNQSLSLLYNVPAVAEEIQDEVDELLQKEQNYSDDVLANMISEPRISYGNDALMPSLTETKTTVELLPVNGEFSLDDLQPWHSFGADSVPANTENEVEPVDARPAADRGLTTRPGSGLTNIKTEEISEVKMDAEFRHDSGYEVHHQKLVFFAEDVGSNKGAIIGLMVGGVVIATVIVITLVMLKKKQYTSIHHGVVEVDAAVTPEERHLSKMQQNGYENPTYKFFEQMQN
Sequence of UniProt Q9BWU1 (whole entry, looked up): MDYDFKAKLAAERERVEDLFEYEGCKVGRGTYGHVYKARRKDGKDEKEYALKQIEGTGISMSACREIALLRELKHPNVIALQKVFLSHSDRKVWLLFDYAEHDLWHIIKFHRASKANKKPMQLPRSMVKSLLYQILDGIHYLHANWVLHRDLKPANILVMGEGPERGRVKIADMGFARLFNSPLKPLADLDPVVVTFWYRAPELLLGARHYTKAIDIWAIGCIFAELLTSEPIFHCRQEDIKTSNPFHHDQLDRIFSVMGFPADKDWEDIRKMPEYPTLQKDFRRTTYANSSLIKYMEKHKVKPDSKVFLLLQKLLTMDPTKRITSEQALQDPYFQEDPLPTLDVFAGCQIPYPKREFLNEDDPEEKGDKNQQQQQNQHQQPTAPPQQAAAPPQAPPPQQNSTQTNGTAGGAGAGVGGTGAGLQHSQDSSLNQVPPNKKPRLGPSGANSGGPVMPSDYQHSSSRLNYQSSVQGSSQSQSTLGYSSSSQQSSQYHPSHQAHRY
Sequence of UniProt P52699 (whole entry, looked up): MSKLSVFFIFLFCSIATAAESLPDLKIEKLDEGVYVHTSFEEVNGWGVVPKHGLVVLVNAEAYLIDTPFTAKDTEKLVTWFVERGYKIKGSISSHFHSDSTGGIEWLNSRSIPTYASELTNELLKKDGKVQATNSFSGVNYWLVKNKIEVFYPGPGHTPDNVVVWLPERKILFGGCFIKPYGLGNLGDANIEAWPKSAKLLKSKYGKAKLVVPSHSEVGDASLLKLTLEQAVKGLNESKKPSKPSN

CC[C@H](C)[C@H](NC(=O)[C@H](CO)NC(=O)[C@H](Cc1ccc(O)cc1)NC(=O)[C@H](CC(=O)O)NC(=O)[C@H](CO)NC(=O)[C@@H](NC(=O)[C@H](Cc1ccccc1)NC(=O)[C@@H](NC(=O)CNC(=O)[C@@H]1CCCN1C(=O)[C@H](C)NC(=O)[C@@H](N)Cc1ccc(O)cc1)[C@@H](C)O)[C@@H](C)CC)C(=O)N[C@@H](C)C(=O)N[C@@H](CCSC)C(=O)N[C@@H](CC(=O)O)C(=O)N[C@@H](CCCCN)C(=O)N[C@H](C(=O)N[C@@H](CCCNC(=N)N)C(=O)N[C@@H](CCC(N)=O)C(=O)N[C@@H](CCC(N)=O)C(=O)N[C@@H](CC(=O)O)C(=O)N[C@@H](Cc1ccccc1)C(=O)N[C@H](C(=O)N[C@@H](CC(N)=O)C(=O)N[C@@H](Cc1c[nH]c2ccccc12)C(=O)N[C@@H](CC(C)C)C(=O)N[C@@H](CC(C)C)C(=O)N[C@@H](C)C(=O)N[C@@H](CCC(N)=O)C(=O)N[C@@H](CCCCN)C(=O)NCC(=O)N[C@@H](CCCCN)C(=O)N[C@@H](CCCCN)C(=O)N[C@@H](CC(N)=O)C(=O)N[C@@H](CC(=O)O)C(=O)N[C@@H](Cc1c[nH]c2ccccc12)C(=O)N[C@@H](CCCCN)C(=O)N[C@@H](Cc1c[nH]cn1)C(=O)N[C@@H](CC(N)=O)C(=O)N[C@@H](CC(C)C)C(=O)N[C@H](C(=O)N[C@@H](CCC(N)=O)C(=O)O)[C@@H](C)O)C(C)C)[C@@H](C)CC — IC50 (Gastric inhibitory polypeptide receptor (Rattus norvegicus, UniProt P43219); ligand displacement in cells, radioligand): 12.6 nM
CC[C@H](C)[C@@H]1NC(=O)[C@H](CCCNC(=N)N)NC(=O)[C@@H]2CCCN2C(=O)[C@H](C(C)C)NC(=O)[C@H](CO)NC(=O)[C@H]([C@@H](C)O)NC(=O)CNC(=O)[C@H](CC(=O)O)NC(=O)[C@@H](NC(=O)[C@@H](N)C(C)C)CSSC[C@@H](C(=O)N[C@H](C(=O)O)C(C)C)NC1=O — IC50 (ACVR2B (Homo sapiens, UniProt Q13705); reporter gene, antagonist, refers to: Smad2/3; HEK293T; 4 h, together with: activin A 0.33 ng/mL): > 100000 nM
CNC(=O)C1CCN(c2ccccc2NC(=O)c2ccc(-c3cc(O)ccc3C)c(C)n2)CC1 — IC50 (YES1 (Homo sapiens, UniProt P07947); target engagement in cells, BRET): 6350 nM
CC[C@H](C)[C@H](NC(=O)[C@H](CC(C)C)NC(=O)[C@@H](N)CC(N)=O)C(=O)N[C@@H](Cc1ccc(O)cc1)C(=O)N[C@@H](CCCNC(=N)N)C(=O)N[C@@H](CC(N)=O)C(=O)N[C@@H](CC(C)C)C(=O)N[C@@H](Cc1c[nH]cn1)C(=O)N[C@@H](CC(C)C)C(=O)O — IC50 (HLA class I histocompatibility antigen, A alpha chain, allele A*02:01 (Homo sapiens, UniProt P04439); binding, competitive radioligand binding; 48 h, 37 °C, together with: radiolabelled FLPSDYFPSV 1 nM): < 200 nM
CC1OC(OC2CC(O)C3(CO)C4C(O)CC5(C)C(C6COC(=O)C6)CCC5(O)C4CCC3(O)C2)C(O)C(O)C1O (centres unmarked) — IC50 (porcine Na+/K+-ATPase; enzyme activity, colorimetric phosphate release): 2600 nM
c1cc2c(s1)CCOC21CCN(Cc2ccc3c(c2)OCCO3)CC1 — IC50 (CYP2C19 (Homo sapiens, UniProt P33261); inhibitor): 20000 nM
CC(=O)SC[C@@H](C)C(=O)Nc1ccccc1-c1nn[nH]n1 — IC50 (blaNDM-1 (Klebsiella pneumoniae, UniProt C7C422); enzyme activity, inhibitor, fluorescence; with preincubation): 30200 nM
CCCCC[N+](CCCCC)(CCCCC)CCCCC — IC50 (Kcnk2 (Rattus norvegicus, UniProt Q920B6, T266C); ion current, inhibitor, inside-out patch clamp): 102000 ± 9000 nM
CN[C@@H](C)C(=O)N[C@H](C(=O)N1C[C@@H](NC(=O)CCCCOCc2cn(CCNC(=O)CN(Cc3cccs3)C(=O)[C@H](NS(=O)(=O)c3cc4ccc(O)nc4cc3Cl)c3ccccc3OC)nn2)C[C@H]1C(=O)N[C@@H]1CCCc2ccccc21)C1CCCCC1 — IC50 (OGT (Homo sapiens, UniProt O15294); enzyme activity, inhibitor, fluorescence): 1920 nM
Cc1cc(Oc2nc(N3CC[C@@H](c4ccncc4)C3)ncc2F)[nH]n1 — IC50 (PPAT (Homo sapiens, UniProt Q06203); enzyme activity, inhibitor): > 14000 nM and 14000 nM
COC(=O)C[C@H](NC(=O)[C@H](C)NC(=O)[C@@H](NC(=O)[C@H](CC(=O)OC)NC(=O)[C@@H](NC(=O)c1ccc2ccccc2n1)C(C)C)C(C)C)C(=O)COc1c(F)cccc1F — IC50 (Caspase-2 (Homo sapiens, UniProt P42575); enzyme activity, inhibitor; 45 min preincubation, together with: Ac-VDVAD-pNA): 127 ± 25 nM
COC(=O)C=CCCC(NC(=O)c1ccncc1C(=O)O)C(=O)NC(C(=O)N1CC(=O)CC1C(=O)NC(C(=O)NC(C(N)=O)C1CCCCC1)C1CCCCC1)C(C)(C)C (centres unmarked) — IC50 (Coagulation factor XIII A chain (Pig, UniProt K7GQL2); transamidation activity, inhibitor; pig enzyme, together with: dansylcadaverine into N,N-dimethylcasein): 16 ± 1.5 nM
N#Cc1cn([C@@H]2O[C@H](CSCC[C@H](N)C(=O)O)[C@@H](O)[C@H]2O)c2ncnc(N)c12 — IC50 (N6-adenosine-methyltransferase catalytic subunit, with METTL14 (METTL3, Homo sapiens, UniProt Q86U44); enzyme activity, inhibitor, radiometric; METTL3-METTL14 complex): 900 nM
CN(CB(O)O)C(=S)[C@@H](N)CCC(=O)O — IC50 (DPP4; enzyme activity, inhibitor; together with: FP-biotin 1 µM): 1.7 nM
O=C(CCS)Nc1ccccc1-c1nn[nH]n1 — IC50 (Metallo-beta-lactamase type 2 (Serratia marcescens, UniProt P52699); inhibitor; 10 min preincubation, together with: FC5 substrate): 10200 nM
CCCCCCCCCCCCCCCCCC(=O)N[C@@H](CC(=O)O)C(=O)N1CCC[C@H]1C(=O)N[C@@H](CCC(=O)O)C(=O)N[C@H](C(=O)NCC(=O)N[C@@H](CCC(=O)O)C(=O)N[C@@H](CC(C)C)C(=O)O)[C@@H](C)O — IC50 (Kelch-like ECH-associated protein 1, Kelch domain with NRF2 (KEAP1, Homo sapiens, UniProt Q14145); Keap1 Kelch-Nrf2 binding, inhibitor, FRET competition; 0.1% DMSO, together with: CFP-Nrf2 0.11 µM): 120 ± 10 nM
Cc1cc([C@H](NC(=O)c2cnccc2-c2ccc(C(F)(F)F)cc2)C(=O)N(C)C)cc(C(F)(F)F)c1 — IC50 (NKG2-D type II integral membrane protein, with MICA (KLRK1, Homo sapiens, UniProt P26718); ligand binding, inhibitor, TR-FRET; HEK293 expressing NKG2D and DAP10; together with: MICA-Alexa647): 100 ± 30 nM
COc1ccc(-c2coc3cc(OCCN4CCCC[C@@H]4C)ccc3c2=O)cc1 — IC50 (Ache (Rattus norvegicus, UniProt P37136); enzyme activity, inhibitor, Ellman): 21200 nM
CC[C@H](C)[C@@H]1NC(=O)[C@H](Cc2ccc(O)cc2)NC(=O)CSC[C@@H](C(=O)NCC(N)=O)NC(=O)[C@H](C(C)C)NC(=O)[C@H](CC(N)=O)NC(=O)[C@H](C(C)C)NC(=O)[C@H](CCCNC(=N)N)NC(=O)[C@H](C)NC(=O)[C@H](Cc2ccc(O)cc2)NC(=O)[C@H](Cc2ccc(O)cc2)NC(=O)CNC(=O)[C@@H]2CCCN2C(=O)[C@H](CCC(=O)O)NC(=O)[C@H](CC(C)C)NC(=O)[C@H]([C@@H](C)CC)NC(=O)[C@H](Cc2ccccc2)NC(=O)[C@H](Cc2ccc(O)cc2)NC1=O — IC50 (NNMT (Homo sapiens, UniProt P40261); enzyme activity, inhibitor, mass spectrometry): 1110 nM
CN(C)[C@H]1C[C@@]23CC[C@@]4(O2)C(=CC[C@]2(C)[C@@H](c5ccc6ccncc6c5)CC[C@H]24)C=C3[C@@H](O)[C@@H]1O — IC50 (CDK19 (Homo sapiens, UniProt Q9BWU1); kinase activity, inhibitor): ~100 nM
CC(=O)N[C@@H](CCCNC(=N)N)C(=O)N[C@H](C(=O)N1CCC[C@H]1C(=O)N[C@@H](COP(=O)(O)O)C(=O)N[C@@H](CC(C)C)C(=O)N1CCC[C@H]1C(=O)N[C@H](C)C(=O)N1CCC[C@H]1C(c1ccccc1)c1ccccc1)[C@@H](C)O — IC50 (YWHAZ (Homo sapiens, UniProt P63104); peptide binding, inhibitor, competitive fluorescence polarization; 10 µM protein, together with: 100 nM FAM-labelled diphosphorylated Tau peptide): 6200 nM
CNC(=O)NC(=N)NCCC[C@@H]1NC(=O)[C@@H](C)NC(=O)C[C@@H](C(=O)O)NC(=O)C[C@@H](C(=O)O)NC(=O)[C@H](Cc2ccc(O)cc2)N(C)C1=O — IC50 (Endochitinase B1 (Aspergillus fumigatus, UniProt Q873X9); enzyme activity, inhibitor, fluorometric; 10 min, pH 5.5, 37 °C, together with: 20 µM 4-MU-chitobiose): 144 nM
CC1(C)C=Cc2c(cc3oc(-c4ccccc4)cc(=O)c3c2O)O1 — IC50 (APP (Homo sapiens, UniProt P05067); amyloid aggregation, inhibitor, fluorescence): 180000 nM
CCCCCCCCCC(=O)N[C@@H](CCCNC(=N)N)C(=O)N[C@H](C(=O)N[C@@H](CCCCN)C(=O)N[C@@H](CCCNC(=N)N)C(=O)CCl)C(C)C — IC50 (Proprotein convertase subtilisin/kexin type 6 (Homo sapiens, UniProt P29122); enzyme activity, inhibitor): 0.631 nM
CC(C)C[C@H](N)C(=O)N1CCC[C@H]1C(=O)N[C@@H](Cc1ccccc1)C(=O)N[C@@H](C)C(=O)O — IC50 (DPP4; enzyme activity, inhibitor, absorbance): < 300000 nM and 216000 nM
COC(=O)C1CN1S(=O)(=O)c1c(C)cc(C)cc1C (centres unmarked) — IC50 (PDIA3 (Homo sapiens, UniProt P30101); enzyme activity, inhibitor, absorbance; pH 7.6): 190000 nM

Repeated from above:
N#Cc1cn([C@@H]2O[C@H](CSCC[C@H](N)C(=O)O)[C@@H](O)[C@H]2O)c2ncnc(N)c12 — IC50 (N6-adenosine-methyltransferase catalytic subunit, with METTL14 (METTL3, Homo sapiens, UniProt Q86U44); enzyme activity, inhibitor, radiometric; METTL3-METTL14 complex): 900 nM
CNC(=O)NC(=N)NCCC[C@@H]1NC(=O)[C@@H](C)NC(=O)C[C@@H](C(=O)O)NC(=O)C[C@@H](C(=O)O)NC(=O)[C@H](Cc2ccc(O)cc2)N(C)C1=O — IC50 (Endochitinase B1 (Aspergillus fumigatus, UniProt Q873X9); enzyme activity, inhibitor, fluorometric; 10 min, pH 5.5, 37 °C, together with: 20 µM 4-MU-chitobiose): 144 nM
CCCCC[N+](CCCCC)(CCCCC)CCCCC — IC50 (Kcnk2 (Rattus norvegicus, UniProt Q920B6, T266C); ion current, inhibitor, inside-out patch clamp): 102000 ± 9000 nM
CC[C@H](C)[C@@H]1NC(=O)[C@H](CCCNC(=N)N)NC(=O)[C@@H]2CCCN2C(=O)[C@H](C(C)C)NC(=O)[C@H](CO)NC(=O)[C@H]([C@@H](C)O)NC(=O)CNC(=O)[C@H](CC(=O)O)NC(=O)[C@@H](NC(=O)[C@@H](N)C(C)C)CSSC[C@@H](C(=O)N[C@H](C(=O)O)C(C)C)NC1=O — IC50 (ACVR2B (Homo sapiens, UniProt Q13705); reporter gene, antagonist, refers to: Smad2/3; HEK293T; 4 h, together with: activin A 0.33 ng/mL): > 100000 nM
